Experimental data pooled from the literature.
Compare with care: the assays were run in different laboratories. Numbers after ± are the reported error.
ache: Acetylcholinesterase (ache, Electrophorus electricus, UniProt O42275)
Sequence of UniProt O42275 (whole entry, looked up): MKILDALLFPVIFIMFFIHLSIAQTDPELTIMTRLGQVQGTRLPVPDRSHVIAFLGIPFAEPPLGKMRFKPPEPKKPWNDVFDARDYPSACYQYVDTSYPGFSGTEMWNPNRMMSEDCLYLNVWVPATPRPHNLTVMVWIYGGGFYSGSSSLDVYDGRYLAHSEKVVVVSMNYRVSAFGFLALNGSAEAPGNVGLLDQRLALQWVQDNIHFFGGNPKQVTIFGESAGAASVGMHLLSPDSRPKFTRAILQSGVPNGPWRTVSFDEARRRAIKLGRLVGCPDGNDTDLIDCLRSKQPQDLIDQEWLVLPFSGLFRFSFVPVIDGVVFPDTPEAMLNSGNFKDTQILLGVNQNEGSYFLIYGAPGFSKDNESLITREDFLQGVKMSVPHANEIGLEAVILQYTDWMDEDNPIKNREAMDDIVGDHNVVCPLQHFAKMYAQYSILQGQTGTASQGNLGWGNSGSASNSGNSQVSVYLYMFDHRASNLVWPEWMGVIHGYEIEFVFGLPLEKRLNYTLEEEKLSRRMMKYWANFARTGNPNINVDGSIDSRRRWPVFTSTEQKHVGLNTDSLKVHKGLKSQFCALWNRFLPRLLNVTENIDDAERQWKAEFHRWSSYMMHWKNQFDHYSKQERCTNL
dcp2 with Dcp1: mRNA decapping complex subunit 2, with Dcp1 (dcp2, Schizosaccharomyces pombe, UniProt O13828)
Sequence of UniProt O13828 (whole entry, looked up): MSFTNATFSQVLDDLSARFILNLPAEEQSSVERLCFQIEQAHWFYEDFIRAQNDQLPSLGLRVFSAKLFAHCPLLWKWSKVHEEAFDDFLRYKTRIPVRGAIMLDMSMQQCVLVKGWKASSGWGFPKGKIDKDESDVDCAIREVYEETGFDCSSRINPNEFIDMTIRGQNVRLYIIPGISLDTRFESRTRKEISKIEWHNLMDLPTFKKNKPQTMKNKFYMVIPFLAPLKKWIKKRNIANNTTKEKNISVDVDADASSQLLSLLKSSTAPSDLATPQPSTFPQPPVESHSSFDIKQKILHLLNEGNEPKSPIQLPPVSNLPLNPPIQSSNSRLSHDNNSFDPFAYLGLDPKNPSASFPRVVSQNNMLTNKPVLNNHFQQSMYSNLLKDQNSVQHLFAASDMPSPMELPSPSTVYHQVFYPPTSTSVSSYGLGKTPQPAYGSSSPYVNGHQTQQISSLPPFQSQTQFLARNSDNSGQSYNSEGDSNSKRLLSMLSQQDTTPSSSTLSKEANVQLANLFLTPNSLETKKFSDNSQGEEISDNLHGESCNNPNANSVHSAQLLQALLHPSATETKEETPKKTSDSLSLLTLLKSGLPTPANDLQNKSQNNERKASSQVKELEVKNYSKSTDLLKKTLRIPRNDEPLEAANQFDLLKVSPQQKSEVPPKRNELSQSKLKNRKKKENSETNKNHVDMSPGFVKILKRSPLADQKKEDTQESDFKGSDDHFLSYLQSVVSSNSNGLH
ADORA3: Adenosine receptor A3 (ADORA3, Homo sapiens, UniProt P0DMS8)
Sequence of UniProt P0DMS8 (whole entry, looked up): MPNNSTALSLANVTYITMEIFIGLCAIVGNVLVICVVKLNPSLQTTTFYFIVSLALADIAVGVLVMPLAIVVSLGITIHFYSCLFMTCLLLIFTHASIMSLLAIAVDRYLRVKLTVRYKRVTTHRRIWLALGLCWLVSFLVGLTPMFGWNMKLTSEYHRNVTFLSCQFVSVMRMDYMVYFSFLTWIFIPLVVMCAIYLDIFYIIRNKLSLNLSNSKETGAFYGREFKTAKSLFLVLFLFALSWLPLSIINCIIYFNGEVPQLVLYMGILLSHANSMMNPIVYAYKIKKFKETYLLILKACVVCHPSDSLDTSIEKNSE
Sequence of UniProt P06241 (whole entry, looked up): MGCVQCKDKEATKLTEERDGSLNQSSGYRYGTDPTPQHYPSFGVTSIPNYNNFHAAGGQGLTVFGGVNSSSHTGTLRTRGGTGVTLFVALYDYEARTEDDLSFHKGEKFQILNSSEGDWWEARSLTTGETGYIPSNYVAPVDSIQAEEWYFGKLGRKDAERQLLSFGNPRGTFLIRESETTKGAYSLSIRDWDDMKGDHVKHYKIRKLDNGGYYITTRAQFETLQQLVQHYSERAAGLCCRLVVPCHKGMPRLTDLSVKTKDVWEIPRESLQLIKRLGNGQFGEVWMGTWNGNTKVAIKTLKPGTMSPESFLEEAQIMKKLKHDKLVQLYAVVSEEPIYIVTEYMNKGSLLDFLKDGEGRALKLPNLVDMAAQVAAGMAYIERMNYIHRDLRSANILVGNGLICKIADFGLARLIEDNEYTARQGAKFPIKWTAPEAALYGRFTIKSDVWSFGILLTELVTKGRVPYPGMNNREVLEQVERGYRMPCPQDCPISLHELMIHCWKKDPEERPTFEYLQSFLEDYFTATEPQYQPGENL
Sequence of UniProt Q99640 (whole entry, looked up): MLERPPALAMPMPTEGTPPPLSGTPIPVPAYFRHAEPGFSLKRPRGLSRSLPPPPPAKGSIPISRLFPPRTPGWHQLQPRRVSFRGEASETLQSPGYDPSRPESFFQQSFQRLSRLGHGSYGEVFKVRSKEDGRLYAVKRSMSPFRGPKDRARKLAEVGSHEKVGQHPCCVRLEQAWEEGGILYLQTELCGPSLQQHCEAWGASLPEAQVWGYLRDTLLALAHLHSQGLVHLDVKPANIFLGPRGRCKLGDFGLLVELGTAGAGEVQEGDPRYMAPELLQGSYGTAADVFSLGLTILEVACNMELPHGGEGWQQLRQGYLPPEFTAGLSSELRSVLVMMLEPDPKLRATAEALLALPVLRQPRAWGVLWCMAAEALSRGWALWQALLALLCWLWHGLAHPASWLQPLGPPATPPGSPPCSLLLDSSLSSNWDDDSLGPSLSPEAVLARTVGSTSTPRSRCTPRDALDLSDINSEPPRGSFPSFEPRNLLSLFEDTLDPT
Sequence of UniProt O43353 (whole entry, looked up): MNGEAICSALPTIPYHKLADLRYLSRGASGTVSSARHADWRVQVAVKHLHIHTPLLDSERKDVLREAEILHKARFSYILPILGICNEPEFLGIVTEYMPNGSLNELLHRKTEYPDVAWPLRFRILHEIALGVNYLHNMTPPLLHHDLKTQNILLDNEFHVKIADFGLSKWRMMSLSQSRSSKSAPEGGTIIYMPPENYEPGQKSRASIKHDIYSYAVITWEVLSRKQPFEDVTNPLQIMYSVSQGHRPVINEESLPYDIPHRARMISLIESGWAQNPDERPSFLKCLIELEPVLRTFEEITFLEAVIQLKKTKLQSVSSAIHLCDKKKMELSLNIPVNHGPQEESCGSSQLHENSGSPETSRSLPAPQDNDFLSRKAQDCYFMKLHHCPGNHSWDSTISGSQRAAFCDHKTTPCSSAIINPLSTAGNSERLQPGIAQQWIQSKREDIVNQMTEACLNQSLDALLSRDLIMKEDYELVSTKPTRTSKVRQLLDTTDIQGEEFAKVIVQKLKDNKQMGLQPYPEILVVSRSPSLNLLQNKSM
Sequence of UniProt Q8NE63 (whole entry, looked up): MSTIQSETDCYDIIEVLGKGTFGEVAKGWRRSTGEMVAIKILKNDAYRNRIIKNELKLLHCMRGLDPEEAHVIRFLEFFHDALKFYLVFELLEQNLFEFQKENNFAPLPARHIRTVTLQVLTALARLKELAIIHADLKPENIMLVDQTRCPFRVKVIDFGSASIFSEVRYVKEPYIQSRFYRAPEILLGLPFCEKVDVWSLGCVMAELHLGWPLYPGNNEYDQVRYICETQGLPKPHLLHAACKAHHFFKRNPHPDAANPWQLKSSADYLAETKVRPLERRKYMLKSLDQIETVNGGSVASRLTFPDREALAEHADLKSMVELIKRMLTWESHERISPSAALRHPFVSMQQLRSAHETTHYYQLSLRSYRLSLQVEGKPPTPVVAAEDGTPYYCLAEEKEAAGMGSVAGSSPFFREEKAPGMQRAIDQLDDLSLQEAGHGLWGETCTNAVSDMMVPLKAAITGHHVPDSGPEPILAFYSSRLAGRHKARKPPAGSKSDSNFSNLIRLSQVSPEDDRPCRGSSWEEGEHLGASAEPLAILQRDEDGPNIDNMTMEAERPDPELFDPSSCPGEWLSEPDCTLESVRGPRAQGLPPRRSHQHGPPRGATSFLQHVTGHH
Sequence of UniProt O43148 (whole entry, looked up): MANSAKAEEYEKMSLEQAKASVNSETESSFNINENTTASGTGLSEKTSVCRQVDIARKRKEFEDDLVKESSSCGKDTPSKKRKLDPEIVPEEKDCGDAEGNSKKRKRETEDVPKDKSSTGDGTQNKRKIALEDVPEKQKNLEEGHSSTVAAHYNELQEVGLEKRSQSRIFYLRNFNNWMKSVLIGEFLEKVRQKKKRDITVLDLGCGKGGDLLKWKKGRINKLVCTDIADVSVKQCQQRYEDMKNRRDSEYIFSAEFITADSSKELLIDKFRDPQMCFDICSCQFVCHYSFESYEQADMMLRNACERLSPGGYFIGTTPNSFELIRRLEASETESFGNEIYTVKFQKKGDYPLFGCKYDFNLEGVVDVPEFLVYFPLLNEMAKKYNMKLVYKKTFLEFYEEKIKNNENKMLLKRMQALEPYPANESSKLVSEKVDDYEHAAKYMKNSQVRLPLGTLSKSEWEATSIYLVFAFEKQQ
Sequence of UniProt P21918 (whole entry, looked up): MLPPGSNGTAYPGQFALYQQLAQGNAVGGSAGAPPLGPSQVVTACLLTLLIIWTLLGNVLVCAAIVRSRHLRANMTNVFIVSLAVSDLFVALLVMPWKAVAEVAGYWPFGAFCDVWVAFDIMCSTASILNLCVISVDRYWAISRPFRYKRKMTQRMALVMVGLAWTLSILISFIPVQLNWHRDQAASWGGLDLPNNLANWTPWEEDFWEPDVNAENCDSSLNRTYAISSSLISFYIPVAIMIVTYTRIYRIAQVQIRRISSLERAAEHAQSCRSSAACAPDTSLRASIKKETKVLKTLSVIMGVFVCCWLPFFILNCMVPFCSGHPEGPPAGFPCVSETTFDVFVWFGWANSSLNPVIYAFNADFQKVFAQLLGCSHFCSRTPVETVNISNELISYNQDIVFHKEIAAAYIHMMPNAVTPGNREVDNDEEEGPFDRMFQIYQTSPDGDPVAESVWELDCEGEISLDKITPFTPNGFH

For C=CC(=O)Nc1cc(-c2nn(C3CCC(N4CCN(C(C)=O)CC4)CC3)c3ncnc(N)c23)ccc1Oc1ccccc1 (stereo not drawn), the inhibition was -10.9% (MARK3 (Homo sapiens, UniProt P27448); inhibitor, KiNativ profiling; biochemical; 2 µM).
O=S(=O)(F)CCc1cn(-c2ccc(OC(F)(F)F)cc2)nn1 has an inhibition of 14.3 ± 2.9% (ache; 20 µM).
For O=C(O)c1ccccc1/C=N/Nc1nc(-c2ccccc2Cl)cs1, the inhibition was -1.82% (FYN (Homo sapiens, UniProt P06241); enzyme activity, inhibitor; 1 µM).
For CC(=O)NC[C@@H]1[C@@H](O)C[C@H]2[C@H](O)C[C@@H](CO)N12, the inhibition was 80.7% (human placental β-N-acetylglucosaminidase; 0.342 µM, run 2, with: p-nitrophenyl GlcNAc).
CCc1nc2ccc(C(=O)NCCCn3ccnc3)cn2c1N(C)Cc1ccc(N(C)C)cc1 has an inhibition of 78% (ache; enzyme activity, inhibitor, Ellman; 5 µM).
For N[C@H](C(=O)N1CCCC1)C1CCN(c2nccc3c(-c4ncc(Cl)cc4Cl)cccc23)CC1, the inhibition was 60.4% (PADI2 (Homo sapiens, UniProt Q9Y2J8); enzyme activity, GDH-coupled; 0.03932 µM, with: 0.25 mM Ca2+ (low)).
The inhibition of C1CSCN1 is reported as 37.7% (ache; enzyme activity, inhibitor, Ellman; 20 µM).
The inhibition of O=C(NC1CCN(c2ncnc3[nH]cnc23)CC1)c1cccc(NS(=O)(=O)c2ccc(C(F)(F)F)cc2)c1 is reported as 6.52% (RNMT (Homo sapiens, UniProt O43148); enzyme activity, inhibitor; 50 µM).
For C[C@H](NCc1ccc(-c2ccc(C(F)(F)F)cc2)cc1)C(N)=O, the inhibition was 17% (TGFBR1 (Homo sapiens, UniProt P36897); cell-free assay, competition with immobilised ligand; 1 µM).
Under inhibition, O=C(Nc1cccs1)c1cccnc1 is recorded as “no inhibition” (NMNAT1 human; enzyme activity, coupled alcohol dehydrogenase counter-screen; concentration not given, with: 50 µM NMN).
The inhibition of c1ccc2c(c1)CCNC2 is reported as 35.2% (ache; enzyme activity, inhibitor, Ellman; 20 µM).
CN(C)[C@H]1C[C@@]23CC[C@@]4(O2)C(=CC[C@]2(C)[C@@H](c5ccc6ccncc6c5)CC[C@H]24)C=C3[C@@H](O)[C@@H]1O gave an inhibition of 2.4% (MAPK6 (Homo sapiens, UniProt Q16659); ATP probe labelling, inhibitor, KiNativ profiling; 1 µM).
OB(O)c1cnn(-c2cc(Cl)ncn2)c1 has an inhibition of 93% (Beta-lactamase (ampC, Escherichia coli K-12, UniProt P00811); enzyme activity, CENTA hydrolysis; 1 µM).
With CN(/N=C/c1ccccc1C(=O)O)c1nc(-c2ccccc2Cl)cs1 the inhibition was -14.3% (HIPK4 (Homo sapiens, UniProt Q8NE63); enzyme activity, inhibitor; 1 µM).
For C[n+]1cn([C@@H]2O[C@H](COP(=O)([S-])OP(=O)(O)OP(=O)(O)OP(=O)([S-])OC[C@H]3O[C@@H](n4c[n+](C)c5c(O)nc(N)nc54)[C@H](O)[C@@H]3O)[C@@H](O)[C@H]2O)c2nc(N)nc(O)c21 (mixture of isomers), the inhibition was 49.4% (dcp2 with Dcp1; 200 µM, 0.25 h).
For CN[C@@H]1[C@H](O)[C@H](NC)[C@H]2O[C@]3(O)[C@H](O[C@@H]2[C@H]1O)O[C@H](C)C[C@H]3NC(=O)Cc1ccc(Cl)cn1, the inhibition was -1% (ADORA3; ligand displacement, radioligand; 10 µM).
With CS(C)(=O)=Nc1ccc(-c2ccc(-c3nc4cc(O[C@@H]5CO[C@H]6[C@@H]5OC[C@H]6O)[nH]c4cc3F)cc2)cc1 the inhibition was 25% (RIPK2 (Homo sapiens, UniProt O43353); enzyme activity, inhibitor; 10 µM).
For NCC1CCN(Cc2ccccc2)CC1, the inhibition was 33.7% (ache; enzyme activity, inhibitor, Ellman; 20 µM).
For Cc1ccc2c(n1)c(-c1cccc(S(C)(=O)=O)c1)c(C)n2C/C(F)=C/CN, the inhibition was 0% (GABBR1 (Homo sapiens, UniProt Q9UBS5); off-target safety screen; 10 µM).
COc1ccc(F)cc1S(=O)(=O)Nc1cnc2c(c1)C(=O)NCCO2 has an inhibition of 9% (kainate glutamate receptor; radioligand binding; 10 µM).
The inhibition of CCOC(=O)[C@](CC)(CCCSCCOCCOCCNC(=O)c1ccc(-c2c3ccc(=N)c(S(=O)(=O)O)c-3oc3c(S(=O)(=O)O)c(N)ccc23)c(C(=O)O)c1)NC(=O)c1ccc(C2CC2)c(Cc2ccc(F)cc2)n1 is reported as 77% (ADORA3; ligand displacement, radioligand; 10 µM).
COc1ccccc1N1CCN(CCCCN2CCCc3ccccc3C2=O)CC1 gave an inhibition of 42.6% (DRD5 (Homo sapiens, UniProt P21918); radioligand binding; concentration not given, with: [3H]SCH23390).
CCC1CC(c2ccc(C(=O)O)cc2C)=NN1c1ccc(C#N)c(Cl)c1 (stereo not drawn) has an inhibition of 3% (CARM1 (Homo sapiens, UniProt Q86X55); enzyme activity, inhibitor; 10 µM).
O=C(CN1CN(c2ccccc2)C2(CCN(C(=O)c3cnc4[nH]ncc4c3)CC2)C1=O)NCC(F)(F)F has an inhibition of less than 50% (PKMYT1 (Homo sapiens, UniProt Q99640); inhibitor; concentration not given).
With CC(C)[C@H]1NC(=O)C[C@H]2/C=C/CCSSC[C@@H](NC1=O)C(=O)N[C@H](Cc1cccc3ccccc13)C(=O)NCC(=O)O2 the inhibition was -6.6% (DYRK3 (Homo sapiens, UniProt O43781); enzyme activity, inhibitor; 10 µM).
CN[C@@H]1[C@H](O)[C@H](NC)[C@H]2O[C@]3(O)[C@H](O[C@@H]2[C@H]1O)O[C@H](C)C[C@H]3NC(=O)Cc1cc(Cl)ccn1 has an inhibition of -1% (SLC6A2 (Homo sapiens, UniProt P23975); ligand displacement, radioligand; 10 µM).
C[n+]1cn([C@@H]2O[C@H](COP(=O)([O-])CP(=O)(O)O)[C@@H](O)[C@H]2O)c2nc(N)nc(O)c21 has an inhibition of 21.5 ± 9.85% (dcp2 with Dcp1; 200 µM, 0.5 h).

A few entries again:
With CN(/N=C/c1ccccc1C(=O)O)c1nc(-c2ccccc2Cl)cs1 the inhibition was -14.3% (HIPK4 (Homo sapiens, UniProt Q8NE63); enzyme activity, inhibitor; 1 µM).
CN[C@@H]1[C@H](O)[C@H](NC)[C@H]2O[C@]3(O)[C@H](O[C@@H]2[C@H]1O)O[C@H](C)C[C@H]3NC(=O)Cc1cc(Cl)ccn1 has an inhibition of -1% (SLC6A2 (Homo sapiens, UniProt P23975); ligand displacement, radioligand; 10 µM).
COc1ccc(F)cc1S(=O)(=O)Nc1cnc2c(c1)C(=O)NCCO2 has an inhibition of 9% (kainate glutamate receptor; radioligand binding; 10 µM).
C[n+]1cn([C@@H]2O[C@H](COP(=O)([O-])CP(=O)(O)O)[C@@H](O)[C@H]2O)c2nc(N)nc(O)c21 has an inhibition of 21.5 ± 9.85% (dcp2 with Dcp1; 200 µM, 0.5 h).
